Experimental data of several laboratories.
Protocols differ between the studies behind these lines. Numbers after ± are the reported error.

With `CC(C)=CCC[C@](C)(O[C@@H]1O[C@H](CO)[C@@H](O)[C@H](O)[C@H]1O)[C@H]1CC[C@]2(C)[C@@H]1[C@H](O)C[C@@H]1[C@@]3(C)CC[C@H](O)C(C)(C)[C@@H]3[C@@H](O[C@@H]3O[C@H](CO)[C@@H](O)[C@H](O)[C@H]3O[C@@H]3O[C@@H](C)[C@H](O)[C@@H](O)[C@H]3O)C[C@]12C` the Cmax was 600 ± 160 ng/mL (Sprague Dawley rats, male, plasma; oral, 45 mg/kg, aqueous solution, together with: co-dosed pure ginsenoside mixture).
For `Cc1cc(C(=O)NC(C)(C)COc2cccc3c2C(N)=NS(=O)(=O)N3)cc(C)n1`, the Cmax was 40 ng/mL (Sprague-Dawley rat, both sexes, plasma; oral, diet, 70 mg/kg, day 91, 13-week dietary study).
For `CCCC[C@H](NC(C)=O)C(=O)N[C@H]1CCC(=O)NC[C@@H](C(=O)N[C@@H](Cc2c[nH]c3ccccc23)C(N)=O)NC(=O)[C@H](CCCNC(=N)N)NC(=O)[C@@H](Cc2ccccc2)NC(=O)[C@H](Cc2c[nH]cn2)NC1=O`, the Cmax was 695 ng/mL (CD Sprague-Dawley rat, female, plasma; subcutaneous, 1.0 mg/kg/day, day 28).
`CC(C)=CCC[C@](C)(O[C@@H]1O[C@H](CO)[C@@H](O)[C@H](O)[C@H]1O)[C@H]1CC[C@]2(C)[C@@H]1[C@H](O)C[C@@H]1[C@@]3(C)CC[C@H](O[C@@H]4O[C@H](CO)[C@@H](O)[C@H](O)[C@H]4O[C@@H]4O[C@H](CO)[C@@H](O)[C@H](O)[C@H]4O)C(C)(C)[C@@H]3CC[C@]12C` gave a Cmax of 982 ± 456 ng/mL (Sprague-Dawley rat, plasma; oral, 2000 mg/kg ginseng extract, diet with NUTRIOSE 2.5% for 2 weeks).
With `C[C@@H]1O[C@@H](OC[C@H]2O[C@@H](Oc3c(-c4ccc(O)c(O)c4)oc4cc(O)cc(O)c4c3=O)[C@H](O)[C@@H](O)[C@@H]2O)[C@H](O)[C@H](O)[C@H]1O` the Cmax was 8.02 ± 4.4 ng/mL (UPLC-MS/MS; Wistar rat, microcirculation dysfunction model, plasma; oral, 100 mg/kg Salvia miltiorrhiza stem-leaf extract FT).
For `C=C(c1ccc(C(=O)O)cc1)c1cc2c(cc1C)C(C)(C)CCC2(C)C`, the Cmax was 8520 ng/mL (rat Sprague-Dawley male, plasma; oral, 100 mg/kg, sesame oil).
For `Cn1nnc2c(C(N)=O)ncn2c1=O`, the Cmax was 410 ± 150 ng/mL (male athymic rat, intracranial U87 glioma, tumour extracellular fluid; oral, 50 mg/kg, uncorrected microdialysis, together with: before cediranib).
For `O=C(O)/C=C/c1ccc(O)c(O)c1`, the Cmax was 4.69 ± 0.68 ng/mL (UPLC-MS/MS; Wistar rat, microcirculation dysfunction model, plasma; oral, 100 mg/kg Salvia miltiorrhiza stem-leaf extract FS).
With `C=C1[C@H](CO)[C@@H](O)C[C@@H]1n1cnc2c(=O)[nH]c(N)nc21` the Cmax was 62.6 ± 11.9 ng/mL (male Sprague-Dawley rat, plasma; oral, 1 mg/kg, together with: CdG 1 mg/kg).
For `C=CC(N)CCC(=O)O` (centres unmarked), the Cmax was 1220 ± 73 ng/mL (male Sprague-Dawley rat, plasma; oral, 1.0 mg/kg, formulation 6, together with: BCH 200 mg/kg).
For `CCN1CCN(c2ccc(Nc3cc(N(C)C(=O)Nc4c(Cl)c(OC)cc(OC)c4Cl)ncn3)cc2)CC1`, the Cmax was 8.12 ng/mL (LC-MS/MS; juvenile male Crl:WI(Han) rats, plasma; oral gavage, 0.3 mg/kg/day, postnatal day 17).
`O=C(O)C[C@H](O)C[C@H](O)/C=C/c1c(C2CC2)nc2ccccc2c1-c1ccc(F)cc1` has a Cmax of 3.1 µM (male Sprague Dawley rat, NASH, plasma; oral, 2.5 mg/kg, geometric mean, together with: vehicle).
The Cmax of `C=CC(=O)Nc1cc(Nc2nccc(-c3cn(C)c4ccccc34)n2)c(OC)cc1N(C)CCN(C)C` is reported as 85.3 ± 23.9 ng/mL (Sprague-Dawley rat, male, plasma; oral, 10 mg/kg, together with: avitinib 30 mg/kg daily for 7 days).
For `CC(C)=CCC[C@](C)(O[C@@H]1O[C@H](CO[C@@H]2O[C@H](CO)[C@@H](O)[C@H](O)[C@H]2O)[C@@H](O)[C@H](O)[C@H]1O)[C@H]1CC[C@]2(C)[C@@H]1[C@H](O)C[C@@H]1[C@@]3(C)CC[C@H](O[C@@H]4O[C@H](CO)[C@@H](O)[C@H](O)[C@H]4O[C@@H]4O[C@H](CO)[C@@H](O)[C@H](O)[C@H]4O)C(C)(C)[C@@H]3CC[C@]12C`, the Cmax was 658 ± 128 ng/mL (Sprague Dawley rats, plasma; oral, 100 mg/kg, control group sterile water).
The Cmax of `CC(C)=CCC[C@](C)(O[C@@H]1O[C@H](CO[C@@H]2O[C@H](CO)[C@@H](O)[C@H](O)[C@H]2O)[C@@H](O)[C@H](O)[C@H]1O)[C@H]1CC[C@]2(C)[C@@H]1[C@H](O)C[C@@H]1[C@@]3(C)CC[C@H](O[C@@H]4O[C@H](CO)[C@@H](O)[C@H](O)[C@H]4O[C@@H]4O[C@H](CO)[C@@H](O)[C@H](O)[C@H]4O)C(C)(C)[C@@H]3CC[C@]12C` is reported as 6900 ± 1910 ng/mL (Sprague Dawley rats, male, plasma; oral, 86 mg/kg, aqueous solution, together with: co-dosed pure ginsenoside mixture).
With `Cc1cc(Nc2cc3ncccc3c(N[C@@H]3C[C@H]4CC[C@@H](C3)N4CCC#N)n2)n[nH]1` the Cmax was 6 ng/mL (pregnant rat, maternal plasma; oral, 100 mg/kg/day, gestation day 17).
`CS(=O)(=O)c1ccc(-c2cnc(N)c(-c3ccc(C(F)(F)F)nc3)c2)cc1` has a Cmax of 876 ng/mL (pregnant female Sprague-Dawley rat, plasma; oral, 3 mg/kg/day, gestation day 17).
`CCCCCCCC/C=C\CCCCCCCC(=O)N[C@H](CCCCN)C(=O)O.Cl` gave a Cmax of ~4.5 µM (Sprague-Dawley rat male, brain; intraperitoneal, 27.5 mg/kg, total bound plus unbound).
`C=CC(=O)N1CCC[C@@H](n2nc(-c3ccc(Oc4ccccc4)cc3)c3c(N)ncnc32)C1` has a Cmax of 40.4 ng/mL (Sprague-Dawley rat, male, brain; oral, 55 mg/kg).
`O=C(O)C[C@H](O)C[C@H](O)/C=C/c1c(C2CC2)nc2ccccc2c1-c1ccc(F)cc1` gave a Cmax of 758 ± 317 ng/mL (male Sprague-Dawley rat (wild type), plasma; oral, 5 mg/kg).
The Cmax of `O=C(/C=C/c1ccc(O)c2c1[C@H](C(=O)O)[C@@H](c1ccc(O)c(O)c1)O2)O[C@H](Cc1ccc(O)c(O)c1)C(=O)O` is reported as 13.6 ± 2.25 ng/mL (UPLC-MS/MS; Wistar rat, microcirculation dysfunction model, plasma; oral, 100 mg/kg Salvia miltiorrhiza stem-leaf extract FT).
The Cmax of `Cc1nc2cccc(OCC(C)(C)C(=O)NC(C)C)c2c(N)c1C(=O)O` is reported as 149 ng/mL (female Sprague-Dawley rat, plasma; dietary, 100 mg/kg/day, day 7).
`CCc1cc2c(cc1N1CCC(N3CCOCC3)CC1)C(C)(C)c1[nH]c3cc(C#N)ccc3c1C2=O` gave a Cmax of 111 ng/mL (moderate hepatic impairment patients, plasma, total; oral, 300 mg single dose, fed).

Repeated from above:
`CS(=O)(=O)c1ccc(-c2cnc(N)c(-c3ccc(C(F)(F)F)nc3)c2)cc1` has a Cmax of 876 ng/mL (pregnant female Sprague-Dawley rat, plasma; oral, 3 mg/kg/day, gestation day 17).
`CC(C)=CCC[C@](C)(O[C@@H]1O[C@H](CO)[C@@H](O)[C@H](O)[C@H]1O)[C@H]1CC[C@]2(C)[C@@H]1[C@H](O)C[C@@H]1[C@@]3(C)CC[C@H](O[C@@H]4O[C@H](CO)[C@@H](O)[C@H](O)[C@H]4O[C@@H]4O[C@H](CO)[C@@H](O)[C@H](O)[C@H]4O)C(C)(C)[C@@H]3CC[C@]12C` gave a Cmax of 982 ± 456 ng/mL (Sprague-Dawley rat, plasma; oral, 2000 mg/kg ginseng extract, diet with NUTRIOSE 2.5% for 2 weeks).
For `CCN1CCN(c2ccc(Nc3cc(N(C)C(=O)Nc4c(Cl)c(OC)cc(OC)c4Cl)ncn3)cc2)CC1`, the Cmax was 8.12 ng/mL (LC-MS/MS; juvenile male Crl:WI(Han) rats, plasma; oral gavage, 0.3 mg/kg/day, postnatal day 17).
